{"data": "Measurements gathered from unrelated publications", "Adenosylmethionine-8-amino-7-oxononanoate aminotransferase": "Adenosylmethionine-8-amino-7-oxononanoate aminotransferase (Mycobacterium tuberculosis, UniProt P9WQ81)", "ACE2": "Angiotensin-converting enzyme 2 (ACE2, Homo sapiens, UniProt Q9BYF1)", "DRD1": "D(1A) dopamine receptor (DRD1, Homo sapiens, UniProt P21728)", "inhA": "Enoyl-[acyl-carrier-protein] reductase [NADH] (inhA, Mycobacterium tuberculosis, UniProt P9WGR1)", "Gastric inhibitory polypeptide receptor": "Gastric inhibitory polypeptide receptor (Mus musculus, UniProt Q0P543)", "note": "Protocols differ between the studies behind these lines. “And” joins repeats or separate records; there may be more than shown. ± gives the spread as reported."}
{"Structure (SMILES)": "O=C(O)c1ccc(/C=C2\\SC(=S)N(Cc3cccc(C(F)(F)F)c3)C2=O)cc1", "target": "NACHT, LRR and PYD domains-containing protein 3 (NLRP3, Homo sapiens, UniProt Q96P20)", "test": "Flag-NLRP3 and mCherry-NLRP3 interaction, inhibitor", "conditions": "concentration not given", "endpoint": "NLRP3 oligomerization", "value": "inhibited"}
{"Structure (SMILES)": "CCCCCn1cc(C(=O)c2ccc3ccccc3c2)c2ccccc21", "target": "Cannabinoid receptor 1 (CNR1, Homo sapiens, UniProt P21554, I267L)", "test": "Gαi1 engagement, agonist, BRET", "how to read": "baseline: reference agonist at wild-type CB1", "endpoint": "Emax", "value": "72.6 ± 4%"}
{"Structure (SMILES)": "CC(Cc1ccc(O)cc1)NCC(O)c1ccc(O)c(O)c1 (centres unmarked)", "target": "Beta-2 adrenergic receptor (ADRB2, Homo sapiens, UniProt P07550)", "test": "β-arrestin recruitment over cAMP production, agonist, operational model", "how to read": "baseline: isoproterenol", "endpoint": "bias factor", "value": "~1"}
{"Structure (SMILES)": "O=c1cc(-c2ccccc2F)[nH]c2cc3c(cc12)OCO3", "target": "Adenosylmethionine-8-amino-7-oxononanoate aminotransferase", "conditions": "100 µg/mL, with: enzyme 2 µM", "endpoint": "inhibition", "value": "78.7%"}
{"Structure (SMILES)": "CCC[C@H](NC(=O)[C@H](CC(C)C)NC(=O)OCc1ccccc1)C(=O)C(=O)NCc1ccccn1", "target": "Replicase polyprotein 1ab, main protease (Human coronavirus OC43, UniProt P0C6X6)", "test": "thermal shift", "how to read": "higher = stronger binding", "endpoint": "ΔTm", "value": "1.54 ± 0.01 °C"}
{"Structure (SMILES)": "Cc1cc(S(=O)(=O)N(C)CC(=O)Nc2ccn(C)c(=O)c2)c2[nH]ncc2c1", "target": "Dihydrolipoyl dehydrogenase (Mycobacterium tuberculosis, UniProt P9WHH9)", "test": "ITC", "conditions": "with: NADH", "how to read": "baseline: without NADH", "endpoint": "Kd decrease", "value": "> 2 fold"}
{"Structure (SMILES)": "CN1C/C(=C\\c2ccccc2)C2=NN(C(N)=S)[C@H](c3ccccc3)[C@@H]2C1", "target": "Adenosylmethionine-8-amino-7-oxononanoate aminotransferase", "conditions": "100 µg/mL, with: enzyme 2 µM", "endpoint": "inhibition", "value": "> 60%"}
{"Structure (SMILES)": "CC(C)C[C@H](NC(=O)[C@H](CCCCN)NC(=O)CNC(=O)[C@H](Cc1c[nH]cn1)NC(=O)[C@H](CCCNC(=N)N)NC(=O)[C@H](CC(C)C)NC(=O)[C@H](Cc1ccc(O)cc1)NC(=O)[C@H](CCCNC(=N)N)NC(=O)[C@H](Cc1ccc(O)cc1)NC(=O)[C@H](CCCCN)NC(=O)[C@@H](N)Cc1ccc(O)cc1)C(=O)N[C@@H](CCCNC(=N)N)C(N)=O", "target": "ACE2", "test": "binding", "conditions": "pH 8", "endpoint": "kon", "value": "1800 M⁻¹ s⁻¹"}
{"Structure (SMILES)": "CCOC(=O)C1C(OC(c2ccc(Cl)cc2)c2ccc(Cl)cc2)CC2CCC1N2C (single isomer, unassigned)", "target": "DRD1", "test": "binding, radioligand displacement", "conditions": "inactive if below 75% at 10000 nM, with: [3H]SCH 23390", "endpoint": "Ki", "value": "inactive"}
{"Structure (SMILES)": "C/C=C(\\N)C(=O)CCCCCCC", "target": "CAI-1 autoinducer sensor kinase/phosphatase CqsS (cqsS, Vibrio cholerae serotype O1, UniProt Q9KM66)", "test": "bioluminescence, agonist", "test system": "Vibrio cholerae", "how to read": "baseline: Ea-CAI-1 at 100%", "endpoint": "EC50", "value": "109%"}
{"Structure (SMILES)": "CC1C(=NNC(=O)c2ccncc2)C(C)C(c2ccc(Cl)cc2)OC1c1ccc(Cl)cc1 (centres unmarked)", "target": "DNA gyrase subunit A/DNA gyrase subunit B (Mycobacterium tuberculosis, UniProt P9WG45+P9WG47)", "test": "enzyme activity, inhibitor", "conditions": "6.25 µg/mL", "endpoint": "inhibition", "value": "67.3%"}
{"Structure (SMILES)": "CCCCCCc1ccc(Oc2ccccc2C)c(O)c1", "target": "inhA", "test": "dissociation", "endpoint": "activation energy", "value": "~10 kcal/mol"}
{"Structure (SMILES)": "C=C(C)C1C2OC(=O)C1C1(O)CC3OC34C(=O)OC2C14C (centres unmarked)", "target": "Rdl (Drosophila melanogaster, UniProt P25123, A301V)", "test": "GABA-induced current, antagonist", "conditions": "concentration not given", "how to read": "baseline: mutant over wild type", "endpoint": "IC50 fold increase", "value": "~1000 fold"}
{"Structure (SMILES)": "CC1=C[C@H]2c3c(O)cc(CCc4ccccc4)cc3OC(C)(C)[C@H]2CC1", "target": "Cannabinoid receptor 2 (CNR2, Homo sapiens, UniProt P34972)", "test": "GTPγS binding, agonist, radiometric", "conditions": "cell membranes", "endpoint": "Emax", "value": "113%"}
{"Structure (SMILES)": "CCCCCCc1ccc(Oc2ccccc2Br)c(O)c1", "target": "inhA", "test": "inhibitor, progress curve analysis", "conditions": "20 °C, two-step induced-fit", "endpoint": "kon", "value": "55000 M⁻¹ s⁻¹"}
{"Structure (SMILES)": "NCc1ccc2[nH]c3c(c2c1)CC1(O)C2Cc4ccc(O)c5c4C1(CCN2CC1CC1)C3O5 (centres unmarked)", "target": "Kappa-type opioid receptor (OPRK1, Homo sapiens, UniProt P41145)", "test": "[3H]diprenorphine binding", "how to read": "baseline: Ki δ over Ki κ", "endpoint": "selectivity ratio", "value": 1}
{"Structure (SMILES)": "CC(=O)N[C@H]1[C@@H](O)[C@H](O)[C@@H](CO)O[C@H]1O", "target": "N-acetylmannosamine kinase (nanK, Vibrio cholerae serotype O1, UniProt Q9KR61)", "test": "substrate", "test system": "Vibrio cholerae", "endpoint": "Km", "value": "71 µM and ~65 µM"}
{"Structure (SMILES)": "CCCCCc1cc(O)c2c(c1)OC(C)(C)[C@@H]1CCC(CO)=C[C@@H]21", "target": "Fatty acid-binding protein, liver (FABP1, Homo sapiens, UniProt P07148)", "test": "binding, DAUDA displacement", "conditions": "concentration not given", "how to read": "baseline: no competitor", "endpoint": "remaining fluorescence", "value": "23 ± 3.8%"}
{"Structure (SMILES)": "CCCCCn1cc(C(=O)c2cccc3c2CC(C)(C)C3)c2ccccc21", "target": "Cannabinoid receptor 1 (CNR1, Homo sapiens, UniProt P21554, L359V)", "test": "Gαi1 engagement, agonist, BRET", "how to read": "baseline: reference agonist at wild-type CB1", "endpoint": "Emax", "value": "124 ± 4.1%"}
{"Structure (SMILES)": "CC(C)c1nc2cc(O)ccc2c(=O)n1-c1ccc(C#N)cc1", "target": "Transient receptor potential cation channel subfamily V member 1 (TRPV1, Homo sapiens, UniProt Q8NER1, L515A)", "test": "ion current, whole-cell patch clamp", "conditions": "1 µM", "how to read": "baseline: wild type", "endpoint": "inhibition", "value": "decreased"}
{"Structure (SMILES)": "CN1CCc2cc(Br)c(O)cc2C(c2ccc(NC(=O)CCOCCOCCOCCOCCn3cc(COCCOCCOCCOCCOCCC(=O)NCCc4c[nH]cn4)nn3)cc2)C1 (centres unmarked)", "target": "DRD1", "test": "binding, association-competition", "conditions": "with: GDA 120 nM", "endpoint": "residence time", "value": "5 to 8 min"}
{"Structure (SMILES)": "CC(C)C[C@H](NC(=O)[C@@H]1CCCN1C(=O)[C@H](Cc1c[nH]c2ccccc12)NC(=O)[C@H](Cc1ccc(O)cc1)NC(=O)[C@@H](N)CO)C(=O)N[C@@H](CC(N)=O)C(=O)N[C@@H](CC(=O)O)C(=O)N[C@@H](Cc1ccc(O)cc1)C(=O)NCC(=O)N[C@@H](Cc1ccccc1)C(=O)N[C@@H](Cc1ccc(O)cc1)C(=O)N[C@H](C(N)=O)[C@@H](C)O", "target": "ACE2", "conditions": "pH 8", "endpoint": "association rate constant", "value": "370 M⁻¹ s⁻¹"}
{"Structure (SMILES)": "CC[C@H](C)[C@H](NC(=O)[C@H](CO)NC(=O)[C@H](Cc1ccc(O)cc1)NC(=O)[C@H](CC(=O)O)NC(=O)[C@H](CO)NC(=O)[C@@H](NC(=O)[C@H](Cc1ccccc1)NC(=O)[C@@H](NC(=O)CNC(=O)[C@H](CCC(=O)O)NC(=O)[C@H](C)NC(=O)[C@@H](N)Cc1ccc(O)cc1)[C@@H](C)O)[C@@H](C)CC)C(=O)N[C@@H](C)C(=O)N[C@@H](CCSC)C(=O)N[C@@H](CC(=O)O)C(=O)N[C@@H](CCCCN)C(=O)N[C@H](C(=O)N[C@@H](CCCNC(=N)N)C(=O)N[C@@H](CCC(N)=O)C(=O)N[C@@H](CCC(N)=O)C(=O)N[C@@H](CC(=O)O)C(=O)N[C@@H](Cc1ccccc1)C(=O)N[C@H](C(=O)N[C@@H](CC(N)=O)C(=O)N[C@@H](Cc1c[nH]c2ccccc12)C(=O)N[C@@H](CC(C)C)C(=O)N[C@@H](CC(C)C)C(=O)N[C@@H](C)C(=O)N[C@@H](CCC(N)=O)C(=O)N[C@@H](CCCNC(=N)N)C(=O)NCC(=O)N[C@@H](CCCCN)C(=O)N[C@@H](CCCCN)C(=O)N[C@@H](CO)C(=O)N[C@@H](CC(=O)O)C(=O)N[C@@H](Cc1c[nH]c2ccccc12)C(=O)N[C@@H](CCCCN)C(=O)N[C@@H](Cc1c[nH]cn1)C(=O)N[C@@H](CC(N)=O)C(=O)N[C@H](C(=O)N[C@H](C(=O)N[C@@H](CCC(N)=O)C(=O)O)[C@@H](C)O)[C@@H](C)CC)C(C)C)[C@@H](C)CC", "target": "Gastric inhibitory polypeptide receptor", "test system": "COS-7", "endpoint": "Emax", "value": "156 ± 13%"}
{"Structure (SMILES)": "Cc1ccccc1N1C(=O)/C(=C/c2ccc(OCc3cccc(C(=O)O)c3)cc2)C(=O)NC1=S", "target": "Tyrosine-protein phosphatase non-receptor type 22 (Ptpn22, Mus musculus, UniProt P29352)", "test": "phosphatase activity, inhibitor", "how to read": "baseline: LYP over mouse PEP", "endpoint": "selectivity ratio", "value": 15}
{"Structure (SMILES)": "CC[C@H](C)[C@H](NC(=O)[C@H](CO)NC(=O)[C@H](Cc1ccc(O)cc1)NC(=O)[C@H](CC(=O)O)NC(=O)[C@H](CO)NC(=O)[C@@H](NC(=O)[C@H](Cc1ccccc1)NC(=O)[C@@H](NC(=O)CNC(=O)[C@@H]1CCCN1C(=O)[C@H](C)NC(=O)[C@@H](N)Cc1ccc(O)cc1)[C@@H](C)O)[C@@H](C)CC)C(=O)N[C@@H](C)C(=O)N[C@@H](CCSC)C(=O)N[C@@H](CC(=O)O)C(=O)N[C@@H](CCCCN)C(=O)N[C@H](C(=O)N[C@@H](CCCNC(=N)N)C(=O)N[C@@H](CCC(N)=O)C(=O)N[C@@H](CCC(N)=O)C(=O)N[C@@H](CC(=O)O)C(=O)N[C@@H](Cc1ccccc1)C(=O)N[C@H](C(=O)N[C@@H](CC(N)=O)C(=O)N[C@@H](Cc1c[nH]c2ccccc12)C(=O)N[C@@H](CC(C)C)C(=O)N[C@@H](CC(C)C)C(=O)N[C@@H](C)C(=O)N[C@@H](CCC(N)=O)C(=O)N[C@@H](CCCCN)C(=O)NCC(=O)N[C@@H](CCCCN)C(=O)N[C@@H](CCCCN)C(=O)N[C@@H](CC(N)=O)C(=O)N[C@@H](CC(=O)O)C(=O)N[C@@H](Cc1c[nH]c2ccccc12)C(=O)N[C@@H](CCCCN)C(=O)N[C@@H](Cc1c[nH]cn1)C(=O)N[C@@H](CC(N)=O)C(=O)N[C@@H](CC(C)C)C(=O)N[C@H](C(=O)N[C@@H](CCC(N)=O)C(=O)O)[C@@H](C)O)C(C)C)[C@@H](C)CC", "target": "Gastric inhibitory polypeptide receptor", "test system": "COS-7", "endpoint": "Emax", "value": "57 ± 14%"}
{"Structure (SMILES)": "CNC(=O)N1CCN(c2ccc(NC(=O)Cn3c(C)c(C(=O)c4ccc(OC)cc4)c4ccccc43)cc2C(F)(F)F)CC1", "target": "Discoidin domain-containing receptor 2 (DDR2, Homo sapiens, UniProt Q16832)", "test": "binding, binding competition", "how to read": "baseline: DDR1 over DDR2", "endpoint": "selectivity ratio", "value": "~10 fold"}
{"note": "A few entries again:"}
{"Structure (SMILES)": "CN1C/C(=C\\c2ccccc2)C2=NN(C(N)=S)[C@H](c3ccccc3)[C@@H]2C1", "target": "Adenosylmethionine-8-amino-7-oxononanoate aminotransferase", "conditions": "100 µg/mL, with: enzyme 2 µM", "endpoint": "inhibition", "value": "> 60%"}
{"Structure (SMILES)": "CC(C)C[C@H](NC(=O)[C@H](CCCCN)NC(=O)CNC(=O)[C@H](Cc1c[nH]cn1)NC(=O)[C@H](CCCNC(=N)N)NC(=O)[C@H](CC(C)C)NC(=O)[C@H](Cc1ccc(O)cc1)NC(=O)[C@H](CCCNC(=N)N)NC(=O)[C@H](Cc1ccc(O)cc1)NC(=O)[C@H](CCCCN)NC(=O)[C@@H](N)Cc1ccc(O)cc1)C(=O)N[C@@H](CCCNC(=N)N)C(N)=O", "target": "ACE2", "test": "binding", "conditions": "pH 8", "endpoint": "kon", "value": "1800 M⁻¹ s⁻¹"}
